Measurements pooled from the literature.
Protocols differ between the studies behind these lines. “And” joins repeats or separate records; there may be more than shown. Numbers after ± are the reported error.

Structure (SMILES) | target or system | test | test system | conditions | scale | endpoint | result
CC(C)(C)c1cc(NC(=O)Nc2ccc(-c3cn4c(n3)sc3cc(OCCN5CCOCC5)ccc34)cc2)no1 | iCell Cardiomyocytes (hiPSC-derived) | xCELLigence Cardio impedance | – | concentration not given, 2 h | baseline: control | beat rate | 96.1%
OC1CCN(c2ccc(/C=N/NC(=S)NCCc3ccccc3)cc2)CC1 | BEAS-2B and A549 | MTT | – | – | baseline: IC50 BEAS-2B over IC50 A549 | selectivity ratio | 11.3
CN(C)C[C@@H]1CCn2cc(c3ccccc32)C2=C(C(=O)NC2=O)c2cn(c3ccccc23)CCO1 | iCell Cardiomyocytes (hiPSC-derived) | CellTiter-Glo | – | concentration not given, 24 h | baseline: control | ATP level | 88.7%
Cc1nc(NC(=O)N2CCC[C@H]2C(N)=O)sc1-c1ccnc(C(C)(C)C(F)(F)F)c1 | Detroit 562 | CellTiter-Glo | – | 120 h | – | Hill coefficient GR curve | 1.06
OCc1nc2ccc(NCc3ccc(OC(F)(F)F)cc3)cc2[nH]1 | sample A patient iPSC NPCs | cell protection, MTS | – | up to 100 µM, 24 h | – | Emax | 31%
Clc1ccc(C2(c3ccc(-c4cn[nH]c4)cc3)CCNCC2)cc1 | SK-OV-3 | ATP | – | 1 µM, 4 days, 3D U-bottom low-attachment | baseline: untreated | relative cell number | 134%
C[C@@H](Oc1cc(-n2cnc3ccc(CN4CCN(C)CC4)cc32)sc1C(N)=O)c1ccccc1C(F)(F)F | iCell Cardiomyocytes (hiPSC-derived) | xCELLigence Cardio impedance | – | concentration not given, 2 h | baseline: control | beat amplitude | 104%
COc1ccc(-n2nc(C(C)=O)s/c2=N\N=C(/C)c2ccc(NC(=O)c3ccc(Cl)cc3)cc2)cc1 | HepG2 | – | – | 10 µM | – | viability | 6.13%
COC(=O)Nc1nc2ccc(C(=O)c3cccs3)cc2[nH]1 | HepaRG | ROS-Glo | – | – | – | maximal ROS response | -106 ± 13.3%
C[C@H]1CN(C2COC2)CCN1c1ccc(Nc2cc(-c3ccnc(N4CCn5c(cc6c5CC(C)(C)C6)C4=O)c3CO)cn(C)c2=O)nc1 | TMD8 RAC2 knockout | calcium flux, FLIPR | – | 4 h preincubation | – | IC50 | 2.5 nM
CN(C)C/C=C/C(=O)Nc1cc2c(Nc3ccc(F)c(Cl)c3)ncnc2cc1O[C@H]1CCOC1 | iCell Cardiomyocytes (hiPSC-derived) | cellular impedance | – | concentration not given, 24 h | baseline: control | cell index | 95.6%
CC(C)(C)c1cnc(CSc2cnc(NC(=O)C3CCN(C(=O)CCCCCCCN4Cc5cc6c(cc5C4)C(=O)N(C4CCC(=O)NC4=O)C6=O)CC3)s2)o1 (stereo not drawn) | TC-71 | Western blot | – | low nanomolar | – | Rpb1 Ser2 CTD phosphorylation | decreased
O=C(/C=C/C=C/C=C/C1CCCCC1)NC1=C[C@@](O)(/C=C/C=C/C=C/C(=O)NC2=C(O)CCC2=O)[C@@H]2O[C@@H]2C1=O | CAKI-2 | cell growth, CellTiter-Glo | – | 78 h | – | GI50 | 18400 nM
COc1ccc2c(N(C)c3ccc(/C(C)=N/OCCN)cc3)c3c(Cl)coc3nc2c1 | LNCaP C-81 | immunoblot | – | 1 µM, 72 h, steroid-reduced medium | – | secreted PSA | increased
Cn1cc(-c2ccc(-c3cncc(Cl)c3N3CCC4(CCNC4=O)CC3)cc2)cn1 | COLO 205 | gene expression, microarray, item: SCUBE1 mRNA | – | concentration not given, 2 h | baseline: untreated cells | log2 fold change | -4.25
C=CC(=O)N1CCC[C@@H](n2nc(-c3ccc(Oc4ccccc4)cc3)c3c(N)ncnc32)C1 | Ramos | calcium flux, FLIPR | – | 4 h preincubation | – | maximum inhibition | 82.8%
O=c1ccn([C@@H]2O[C@H](CO)[C@@H](O)[C@H]2O)c(=O)[nH]1 | – | binding, equilibrium dialysis LC-MS | – | 5 µM, thermostabilized A2AR-BRIL construct | baseline: no-protein control, direction not given | z-scored log2 fold change | 0.146
Cc1cccc(-c2[nH]c(CNc3ccccc3F)nc2-c2ccc3ncnn3c2)n1 | bone marrow CD138+ myeloma cells | XTT | – | 2 µM, mean of three patients | – | viability | 7%
C=C(c1ccc(O)c(Oc2cc3c(cc2OC)CCN(C)[C@@H]3Cc2ccc(OC)cc2)c1)[C@H]1c2cc(OC)c(OC)cc2CCN1C | 3T3-L1 | adipocyte lipid accumulation, Nile Red staining | – | 1 µM | – | inhibition | 10.2 ± 0.9%
CN1CCN(c2ccc3[nH]c(-c4ccc5[nH]c(-c6ccc(C(F)(F)F)cc6)nc5c4)nc3c2)CC1 | SK-MEL-2 | SRB | – | 10 µM, 48 h | – | growth percent | 103%
Cc1ccc2nc(NCCN)c3ncc(C)n3c2c1 | iCell Cardiomyocytes (hiPSC-derived) | CellTiter-Glo | – | concentration not given, 24 h | baseline: control | ATP level | 99.1%

Structure (SMILES) | target or system | test | test system | conditions | scale | endpoint | result
C[C@H]1Oc2cc(cnc2N)-c2c(nn(C)c2C#N)CN(C)C(=O)c2ccc(F)cc21 | NB1 (ALK amplification, exon 2-3 deletion) | cell viability | – | – | – | Emax | 80.2%
CCc1cnc(N2CCC(c3nc(COc4ccc(-n5cnnn5)cc4)cs3)CC2)nc1 | HEK-293T | RNA-seq GSEA, item: HALLMARK_KRAS_SIGNALING_DN | – | concentration not given | direction not given | normalized enrichment score | -0.923
CC(C)NCC(O)c1ccc(O)c(O)c1 (stereo not drawn) | mouse ventricular cardiomyocytes | – | – | dose not given, 0.099 s | – | sarcomere length | 1.71 µm
C=CC(=O)N1CCC([C@@H]2CCNc3c(C(N)=O)c(-c4ccc(Oc5ccccc5)cc4)nn32)CC1 | TMD8 RAC2 knockout | calcium flux, FLIPR | – | 1 h preincubation | – | IC50 | 6.6 nM
CC(C)C[C@@H](C=O)NC(=O)[C@H](CC(C)C)NC(=O)[C@H](CC(C)C)NC(=O)OCc1ccccc1 | HEK293 | item: CD4 signal peptide-FLuc reporter | – | concentration not given, 6 h, time-course chase, unit not given, together with: cycloheximide | baseline: untreated | FLuc activity | 1.45
Cc1cc(Nc2ncc(Cl)c(Nc3ccccc3S(=O)(=O)C(C)C)n2)c(OC(C)C)cc1C1CCNCC1 | CLB-BAR | phosphoproteomics LC-MS/MS, item: KIF26B phosphorylation | – | 200 nM, 60 min | baseline: untreated | log2 fold change | -2.63
COc1cnc2cccc(N3CCc4c(cc(Cn5ccnc5C)cc4-c4cn(C)nc4C(F)(F)F)C3=O)c2c1 | CFPAC-1 | cell growth, inhibitor | – | 120 h | – | EC50 | > 30000 nM
C[C@]12CCCN1CC1=NNC(=O)c3cc(F)cc4[nH]c2c1c34 | Hs746T | – | – | together with: temozolomide | – | EC50 | > 10000 nM
CC1(C)CNc2cc(NC(=O)c3cccnc3NCc3ccncc3)ccc21 | iCell Cardiomyocytes (hiPSC-derived) | xCELLigence Cardio impedance | – | concentration not given, 2 h | baseline: control | beat rate | 101%
CSc1cc(Oc2ccnc3[nH]c(=O)cnc23)ccc1NC(=O)Nc1cc(C(C)(C)C)nn1-c1ccccc1 | patient-derived cells | RPPA, item: p53 pSer15 | – | 1 µM, 4 h, mean of three patients | baseline: DMSO | phospho/total ratio | 0.62
COc1ccc2c(Cc3cccc(-c4ccccc4)c3)ncnc2c1 | A549 | mitochondrial oxygen consumption, Seahorse XF96 | – | 10 µM | – | inhibition | 32%
C=CC(=O)N1[C@@H](c2ccc3c(c2)OCO3)c2[nH]c3ccccc3c2C[C@H]1C(=O)NC | rat DRG neurons | – | – | 3.333 µM, 48 h, together with: vincristine 40 nM | – | neuron degeneration | 50.2% and 52.7%
COc1ccc2c(c1OC)CN1CCc3cc4c(cc3C1=C2)OCO4 | KU812 | – | culture supernatant | 37 µM, together with: A23187 | – | PGD2 level | 240 pg/mL
CCn1cc(-c2cc(Cn3ccoc3=N)cc3c2CCN([C@@H](C)c2cc(OC)ccn2)C3=O)c(C(F)(F)F)n1 | DB | cell growth | – | 120 h | – | EC50 | 31.9 nM
C#Cc1cccc(Nc2ncnc3cc(OCCOC)c(OCCOC)cc23)c1 | iCell Cardiomyocytes (hiPSC-derived) | xCELLigence Cardio impedance | – | concentration not given, 2 h | baseline: control | beat rate | 102%
CCn1c(-c2nonc2N)nc2cncc(CNC3CCNCC3)c21 | SK-OV-3 | ATP | – | 10 µM, 4 days, 3D gellan gum culture | baseline: untreated | relative cell number | 41.2%
CNC(=O)c1cc(Oc2ccc(NC(=O)Nc3ccc(Cl)c(C(F)(F)F)c3)cc2)ccn1 | iCell Cardiomyocytes (hiPSC-derived) | CellTiter-Glo | – | concentration not given, 24 h | baseline: control | ATP level | 92.5%
CCn1cc(-c2cc(Cn3ccnc3)cc3c2CCN([C@H](c2cc(OC)ccn2)C2CC2)C3=O)c(C(F)(F)F)n1 | HCC1195 | cell growth | – | 120 h | – | EC50 | > 30000 nM
Cn1cc(-c2ccc(F)c(C(F)(F)F)c2)nc1C1CCN(c2ncnc3[nH]ncc23)CC1 | SK-OV-3 | ATP | – | 0.1 µM, 4 days, 3D gellan gum culture | baseline: untreated | relative cell number | 97.4%
Cn1nnc2c(C(N)=O)ncn2c1=O | C6 rat glioma | live/dead staining | – | 1000 µM, 24 h | – | cells killed | ~50%
CC(=CC(=O)O)CC(=O)O | – | binding, equilibrium dialysis LC-MS | – | 5 µM, thermostabilized A2AR-BRIL construct | baseline: no-protein control, direction not given | z-scored log2 fold change | 0.292

Excerpt of the above:
Structure (SMILES) | target or system | test | test system | conditions | scale | endpoint | result
Cc1nc(NC(=O)N2CCC[C@H]2C(N)=O)sc1-c1ccnc(C(C)(C)C(F)(F)F)c1 | Detroit 562 | CellTiter-Glo | – | 120 h | – | Hill coefficient GR curve | 1.06
OCc1nc2ccc(NCc3ccc(OC(F)(F)F)cc3)cc2[nH]1 | sample A patient iPSC NPCs | cell protection, MTS | – | up to 100 µM, 24 h | – | Emax | 31%
Clc1ccc(C2(c3ccc(-c4cn[nH]c4)cc3)CCNCC2)cc1 | SK-OV-3 | ATP | – | 1 µM, 4 days, 3D U-bottom low-attachment | baseline: untreated | relative cell number | 134%
C[C@@H](Oc1cc(-n2cnc3ccc(CN4CCN(C)CC4)cc32)sc1C(N)=O)c1ccccc1C(F)(F)F | iCell Cardiomyocytes (hiPSC-derived) | xCELLigence Cardio impedance | – | concentration not given, 2 h | baseline: control | beat amplitude | 104%
